# Results collected from several papers.
# Amino acid sequences for entries named in this document (tags omitted). A change or cut given only in a name is not applied to a line headed by its entry.
# UniProt P54282, whole entry, looked up: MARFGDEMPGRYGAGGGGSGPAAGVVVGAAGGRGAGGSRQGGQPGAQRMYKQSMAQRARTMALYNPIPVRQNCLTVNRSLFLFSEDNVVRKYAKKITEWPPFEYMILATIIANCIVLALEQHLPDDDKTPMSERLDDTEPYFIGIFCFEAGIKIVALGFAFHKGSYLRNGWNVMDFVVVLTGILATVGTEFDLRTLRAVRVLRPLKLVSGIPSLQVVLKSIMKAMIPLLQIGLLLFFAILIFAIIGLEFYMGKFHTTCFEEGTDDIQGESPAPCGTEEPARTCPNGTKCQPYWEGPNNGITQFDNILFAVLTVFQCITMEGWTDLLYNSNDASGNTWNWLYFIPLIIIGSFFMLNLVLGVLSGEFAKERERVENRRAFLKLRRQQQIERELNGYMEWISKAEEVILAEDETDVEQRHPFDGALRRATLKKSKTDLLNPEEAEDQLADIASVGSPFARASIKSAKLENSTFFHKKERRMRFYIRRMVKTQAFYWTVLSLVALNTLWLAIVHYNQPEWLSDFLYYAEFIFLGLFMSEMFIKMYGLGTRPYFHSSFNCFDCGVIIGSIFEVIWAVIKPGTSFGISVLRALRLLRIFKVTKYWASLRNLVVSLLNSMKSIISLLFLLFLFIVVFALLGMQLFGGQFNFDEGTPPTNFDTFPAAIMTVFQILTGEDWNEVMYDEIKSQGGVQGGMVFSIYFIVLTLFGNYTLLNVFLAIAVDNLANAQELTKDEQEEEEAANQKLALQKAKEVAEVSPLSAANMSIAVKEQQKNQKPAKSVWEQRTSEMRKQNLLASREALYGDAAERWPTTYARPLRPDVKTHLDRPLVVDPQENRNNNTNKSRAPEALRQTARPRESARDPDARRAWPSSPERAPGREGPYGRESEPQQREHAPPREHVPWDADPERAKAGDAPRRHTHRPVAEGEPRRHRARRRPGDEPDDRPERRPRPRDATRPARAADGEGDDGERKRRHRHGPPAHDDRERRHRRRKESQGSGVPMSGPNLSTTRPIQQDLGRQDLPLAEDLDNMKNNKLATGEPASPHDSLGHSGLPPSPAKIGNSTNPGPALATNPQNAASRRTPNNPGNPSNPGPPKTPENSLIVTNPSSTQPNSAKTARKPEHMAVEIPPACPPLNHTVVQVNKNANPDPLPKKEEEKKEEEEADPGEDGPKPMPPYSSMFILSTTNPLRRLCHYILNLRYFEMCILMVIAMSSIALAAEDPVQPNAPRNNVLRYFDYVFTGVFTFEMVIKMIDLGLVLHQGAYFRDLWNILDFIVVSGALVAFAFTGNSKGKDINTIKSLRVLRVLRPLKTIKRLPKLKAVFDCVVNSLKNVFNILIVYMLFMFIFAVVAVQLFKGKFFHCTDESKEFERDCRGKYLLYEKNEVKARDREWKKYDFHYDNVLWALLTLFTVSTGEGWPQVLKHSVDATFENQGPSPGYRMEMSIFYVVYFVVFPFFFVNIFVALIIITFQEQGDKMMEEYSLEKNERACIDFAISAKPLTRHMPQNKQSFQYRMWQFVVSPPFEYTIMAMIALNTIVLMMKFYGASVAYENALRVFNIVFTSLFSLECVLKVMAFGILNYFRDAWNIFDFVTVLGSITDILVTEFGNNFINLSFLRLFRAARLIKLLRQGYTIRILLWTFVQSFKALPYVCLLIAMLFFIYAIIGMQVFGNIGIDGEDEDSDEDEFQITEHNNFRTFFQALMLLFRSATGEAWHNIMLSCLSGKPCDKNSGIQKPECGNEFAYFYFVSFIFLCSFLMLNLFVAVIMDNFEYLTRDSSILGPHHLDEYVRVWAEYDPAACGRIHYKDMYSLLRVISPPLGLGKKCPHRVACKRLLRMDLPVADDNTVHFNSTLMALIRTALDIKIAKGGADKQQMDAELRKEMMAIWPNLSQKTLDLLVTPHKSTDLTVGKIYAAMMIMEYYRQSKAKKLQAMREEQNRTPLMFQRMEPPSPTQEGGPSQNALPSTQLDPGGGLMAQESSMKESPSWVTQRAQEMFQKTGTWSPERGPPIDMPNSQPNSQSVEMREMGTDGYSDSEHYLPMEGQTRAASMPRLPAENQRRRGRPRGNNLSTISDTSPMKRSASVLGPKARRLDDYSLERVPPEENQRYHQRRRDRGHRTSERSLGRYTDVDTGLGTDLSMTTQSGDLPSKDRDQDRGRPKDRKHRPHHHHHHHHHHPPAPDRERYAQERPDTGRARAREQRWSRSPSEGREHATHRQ
# UniProt P17787, whole entry, looked up: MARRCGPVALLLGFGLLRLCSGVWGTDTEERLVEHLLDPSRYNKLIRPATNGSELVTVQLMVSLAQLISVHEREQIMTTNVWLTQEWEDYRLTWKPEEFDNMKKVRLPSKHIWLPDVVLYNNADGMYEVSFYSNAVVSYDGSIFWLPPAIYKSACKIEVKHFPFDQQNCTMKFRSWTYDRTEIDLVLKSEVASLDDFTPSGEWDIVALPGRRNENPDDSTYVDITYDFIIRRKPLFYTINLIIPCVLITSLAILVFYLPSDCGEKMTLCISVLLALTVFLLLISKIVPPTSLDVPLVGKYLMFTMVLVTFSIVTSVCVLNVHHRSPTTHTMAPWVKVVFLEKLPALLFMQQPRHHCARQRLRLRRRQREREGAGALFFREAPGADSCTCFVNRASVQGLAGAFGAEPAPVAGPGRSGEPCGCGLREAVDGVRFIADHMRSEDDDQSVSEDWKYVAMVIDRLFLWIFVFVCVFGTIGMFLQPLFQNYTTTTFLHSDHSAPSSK
# UniProt P32297, whole entry, looked up: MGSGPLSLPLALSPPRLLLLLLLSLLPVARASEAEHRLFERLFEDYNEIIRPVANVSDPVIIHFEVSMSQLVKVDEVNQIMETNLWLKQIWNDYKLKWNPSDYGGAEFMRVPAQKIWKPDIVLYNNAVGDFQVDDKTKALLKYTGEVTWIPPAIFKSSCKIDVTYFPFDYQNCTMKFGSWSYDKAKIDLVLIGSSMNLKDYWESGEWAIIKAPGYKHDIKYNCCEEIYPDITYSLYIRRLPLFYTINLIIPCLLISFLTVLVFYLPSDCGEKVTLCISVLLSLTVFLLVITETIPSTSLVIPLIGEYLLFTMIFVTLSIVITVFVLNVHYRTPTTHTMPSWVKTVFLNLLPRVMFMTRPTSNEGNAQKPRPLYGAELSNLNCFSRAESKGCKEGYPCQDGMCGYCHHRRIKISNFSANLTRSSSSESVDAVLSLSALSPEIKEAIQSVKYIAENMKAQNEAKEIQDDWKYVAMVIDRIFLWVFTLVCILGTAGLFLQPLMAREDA
# UniProt P23975, whole entry: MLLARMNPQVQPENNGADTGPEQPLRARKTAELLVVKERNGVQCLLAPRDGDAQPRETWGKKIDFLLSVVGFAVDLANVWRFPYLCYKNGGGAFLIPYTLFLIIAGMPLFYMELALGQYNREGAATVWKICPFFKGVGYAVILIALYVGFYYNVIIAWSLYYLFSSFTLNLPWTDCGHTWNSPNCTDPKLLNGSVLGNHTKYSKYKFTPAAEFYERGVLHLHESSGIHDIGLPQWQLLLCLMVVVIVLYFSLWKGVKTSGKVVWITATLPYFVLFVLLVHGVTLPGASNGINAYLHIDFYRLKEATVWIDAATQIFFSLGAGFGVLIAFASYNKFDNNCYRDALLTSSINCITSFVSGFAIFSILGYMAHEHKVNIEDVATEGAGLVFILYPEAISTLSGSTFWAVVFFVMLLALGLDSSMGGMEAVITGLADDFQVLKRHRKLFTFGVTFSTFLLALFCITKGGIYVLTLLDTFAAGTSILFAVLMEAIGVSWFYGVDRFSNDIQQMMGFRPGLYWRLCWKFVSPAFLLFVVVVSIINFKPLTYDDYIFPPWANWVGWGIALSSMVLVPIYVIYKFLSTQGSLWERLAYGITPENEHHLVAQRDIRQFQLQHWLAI
# UniProt Q02294, whole entry, looked up: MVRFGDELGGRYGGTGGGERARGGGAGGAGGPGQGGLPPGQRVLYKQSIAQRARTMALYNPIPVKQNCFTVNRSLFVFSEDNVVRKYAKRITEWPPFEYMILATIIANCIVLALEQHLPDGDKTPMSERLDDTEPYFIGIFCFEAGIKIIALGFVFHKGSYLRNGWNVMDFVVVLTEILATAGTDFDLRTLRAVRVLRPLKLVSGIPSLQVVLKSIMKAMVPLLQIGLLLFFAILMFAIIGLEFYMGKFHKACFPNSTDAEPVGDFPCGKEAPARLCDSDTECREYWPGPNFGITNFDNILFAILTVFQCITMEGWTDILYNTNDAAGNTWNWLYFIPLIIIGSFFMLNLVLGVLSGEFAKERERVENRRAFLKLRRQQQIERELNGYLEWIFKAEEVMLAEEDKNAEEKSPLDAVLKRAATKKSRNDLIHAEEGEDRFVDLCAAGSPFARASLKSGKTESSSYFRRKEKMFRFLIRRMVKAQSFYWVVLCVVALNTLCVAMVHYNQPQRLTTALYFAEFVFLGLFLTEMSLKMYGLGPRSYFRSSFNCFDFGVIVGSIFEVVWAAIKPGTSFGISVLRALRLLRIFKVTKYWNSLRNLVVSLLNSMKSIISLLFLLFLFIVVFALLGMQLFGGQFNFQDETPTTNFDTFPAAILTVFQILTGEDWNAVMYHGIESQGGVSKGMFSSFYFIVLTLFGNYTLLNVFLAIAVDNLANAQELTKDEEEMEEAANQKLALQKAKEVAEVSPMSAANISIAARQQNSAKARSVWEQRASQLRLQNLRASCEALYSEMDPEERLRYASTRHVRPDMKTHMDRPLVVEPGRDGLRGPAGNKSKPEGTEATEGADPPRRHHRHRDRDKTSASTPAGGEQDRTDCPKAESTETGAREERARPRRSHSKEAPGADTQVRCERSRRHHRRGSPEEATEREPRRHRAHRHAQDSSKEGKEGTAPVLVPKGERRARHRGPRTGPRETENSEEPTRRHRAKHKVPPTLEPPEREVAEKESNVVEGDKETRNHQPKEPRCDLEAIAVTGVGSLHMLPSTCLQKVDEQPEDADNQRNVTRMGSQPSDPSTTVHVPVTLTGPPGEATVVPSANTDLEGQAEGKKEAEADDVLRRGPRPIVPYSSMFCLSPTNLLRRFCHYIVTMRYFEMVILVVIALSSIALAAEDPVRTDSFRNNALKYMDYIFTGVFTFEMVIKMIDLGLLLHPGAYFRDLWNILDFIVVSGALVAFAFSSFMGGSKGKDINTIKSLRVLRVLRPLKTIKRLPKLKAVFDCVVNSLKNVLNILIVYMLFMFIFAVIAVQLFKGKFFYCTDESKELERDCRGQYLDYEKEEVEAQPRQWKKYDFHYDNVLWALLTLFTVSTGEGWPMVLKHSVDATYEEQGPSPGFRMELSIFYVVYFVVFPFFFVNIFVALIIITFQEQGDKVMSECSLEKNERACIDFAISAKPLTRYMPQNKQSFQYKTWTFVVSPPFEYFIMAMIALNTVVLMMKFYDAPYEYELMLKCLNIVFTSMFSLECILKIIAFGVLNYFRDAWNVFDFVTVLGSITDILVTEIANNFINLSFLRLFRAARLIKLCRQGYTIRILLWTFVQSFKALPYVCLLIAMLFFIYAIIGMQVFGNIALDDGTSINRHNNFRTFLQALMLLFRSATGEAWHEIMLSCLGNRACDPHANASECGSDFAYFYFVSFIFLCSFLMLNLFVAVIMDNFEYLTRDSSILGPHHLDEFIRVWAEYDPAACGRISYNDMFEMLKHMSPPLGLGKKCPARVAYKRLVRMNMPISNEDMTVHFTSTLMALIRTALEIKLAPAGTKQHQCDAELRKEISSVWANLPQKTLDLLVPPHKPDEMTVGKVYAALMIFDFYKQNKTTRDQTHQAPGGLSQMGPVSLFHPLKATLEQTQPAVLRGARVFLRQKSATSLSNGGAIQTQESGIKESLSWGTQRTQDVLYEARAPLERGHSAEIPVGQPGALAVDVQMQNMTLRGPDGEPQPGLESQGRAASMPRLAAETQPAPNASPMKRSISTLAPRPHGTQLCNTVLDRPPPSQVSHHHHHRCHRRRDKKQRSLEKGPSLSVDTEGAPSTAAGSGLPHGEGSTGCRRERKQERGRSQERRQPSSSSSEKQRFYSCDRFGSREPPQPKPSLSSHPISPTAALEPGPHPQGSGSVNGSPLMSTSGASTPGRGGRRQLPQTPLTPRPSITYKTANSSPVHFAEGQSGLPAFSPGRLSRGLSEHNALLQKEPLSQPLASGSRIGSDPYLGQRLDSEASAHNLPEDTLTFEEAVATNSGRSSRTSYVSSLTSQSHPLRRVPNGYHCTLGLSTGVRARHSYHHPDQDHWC
# Compare with care: the assays were run in different laboratories. Numbers after ± are the reported error.
# bglR: Beta-glucuronidase (bglR, Clostridium perfringens, UniProt Q8XP19)
# Spike glycoprotein Beta variant: Spike glycoprotein, Beta variant (Severe acute respiratory syndrome coronavirus 2, UniProt P0DTC2)
Compound,target,test,system,setting,IC50
O=C(O)CCOc1c(SSc2cnn(-c3ccccc3)c(=O)c2OCCC(=O)O)cnn(-c2ccccc2)c1=O,"Sortase A (Bacillus anthracis str. H9401, UniProt P0DPQ5)",inhibitor,Bacillus anthracis,,9980 ± 370 nM
CNc1nc(N2CCNCC2)c2sc3ncccc3c2n1,bglR,"enzyme activity, inhibitor",,,60 ± 1 nM
CC[C@H](C)[C@H](NC(=O)[C@H](C)NC(=O)[C@H](CCC(=O)O)NC(=O)[C@H](CCC(=O)O)NC(=O)[C@H](CC(C)C)NC(=O)[C@H](CCCCN)NC(=O)[C@H](CCCCN)NC(=O)[C@H](CCSC)NC(=O)[C@H](CCC(=O)O)NC(=O)[C@H](Cc1ccc(O)cc1)NC(=O)[C@H](CCC(=O)O)NC(=O)[C@H](CC(C)C)NC(=O)[C@H](CC(=O)O)NC(=O)[C@H](CC(C)C)NC(=O)[C@H](Cc1ccccc1)NC(=O)[C@H](Cc1ccc(O)cc1)NC(=O)[C@@H](NC(=O)[C@H](CC(N)=O)NC(=O)[C@@H](NC(=O)[C@H](CCC(N)=O)NC(=O)[C@H](CC(=O)O)NC(=O)[C@H](CC(C)C)NC(=O)[C@@H](N)CO)[C@@H](C)CC)C(C)C)C(=O)N[C@@H](CCCCN)C(=O)N[C@@H](CCCCN)C(=O)N[C@@H](CC(C)C)C(=O)N[C@@H](CCC(=O)O)C(=O)N[C@@H](CCC(=O)O)C(=O)N[C@H](C(=O)N[C@@H](Cc1ccc(O)cc1)C(=O)N[C@H](C(=O)N[C@@H](CC(=O)O)C(=O)N[C@@H](CC(C)C)C(=O)N[C@@H](CCCCN)C(=O)N[C@@H](CCC(=O)O)C(=O)N[C@@H](CC(C)C)C(=O)O)[C@@H](C)CC)[C@@H](C)O,Spike glycoprotein Beta variant,"cell-cell fusion, inhibitor, luciferase fusion","293T donor, Huh-7 target","16 h, 37 °C, dual mutations",239 nM
C[C@@H](O)[C@@H]1NC(=O)[C@@H]2CSSC[C@H](N)C(=O)N[C@@H](CCCCN)C(=O)N[C@@H](CCCNC(=N)N)C(=O)N[C@@H](CCCCN)C(=O)NCC(=O)N[C@@H](CO)C(=O)N[C@@H](CO)C(=O)N[C@H]3CSSC[C@H](NC(=O)[C@H](CO)NC(=O)CNC1=O)C(=O)N[C@@H](CCCNC(=N)N)C(=O)N[C@@H](CC(N)=O)C(=O)NCC(=O)N[C@@H](CCCCN)C(=O)N[C@H](C(N)=O)CSSC[C@H](NC(=O)[C@H](CC(=O)O)NC(=O)[C@H](Cc1ccc(O)cc1)NC(=O)[C@H](CO)NC(=O)[C@H]([C@@H](C)O)NC(=O)[C@H](CCCNC(=N)N)NC(=O)[C@H](CCCNC(=N)N)NC3=O)C(=O)N2,"Voltage-dependent P/Q-type calcium channel subunit alpha-1A (Cacna1a, Rattus norvegicus, UniProt P54282)","ion current, inhibitor, whole-cell patch clamp",,,< 10000 nM
CCOc1ccccc1-c1cc(C(=O)NC/C=C/S(C)(=O)=O)nn1COC,"Polyprotein P1234, nsP2 protease (Chikungunya virus, UniProt Q5XXP4)",FRET,,,30000 ± 7000 nM
Cc1cccc(CN2CCN(C(c3ccccc3)c3ccc(Cl)cc3)CC2)c1 (stereo not shown),"Replicase polyprotein 1ab, nsp14 (rep, Severe acute respiratory syndrome-related coronavirus, UniProt P0C6X7)","enzyme activity, inhibitor",,,6200 ± 400 nM
CC[C@H](C)[C@@H]1NC(=O)[C@H](CCC(=O)O)NC(=O)[C@@H]2CCCN2C(=O)[C@H](Cc2c[nH]cn2)NC(=O)[C@H](CC(=O)O)NC(=O)[C@H](C(C)C)NC(=O)[C@H](CC(N)=O)NC(=O)[C@@H]2CSSC[C@H](NC(=O)[C@H](CCC(N)=O)NC(=O)[C@@H]3CCCN3C(=O)[C@@H](N)CCCNC(=N)N)C(=O)N[C@@H](CSSC[C@@H](C(N)=O)NC1=O)C(=O)N[C@@H](CO)C(=O)N[C@@H](Cc1c[nH]cn1)C(=O)N1CCC[C@H]1C(=O)N[C@@H](C)C(=O)N2,"Neuronal acetylcholine receptor; alpha3/beta2 (Homo sapiens, UniProt P17787+P32297)","ACh-evoked current, antagonist, two-electrode voltage clamp",Xenopus oocytes,"5 min, pH 7.4, holding potential -70 mV",5400 ± 500 nM
CC(C)C[C@H](NC(=O)[C@@H]1CCC(=O)N1)C(=O)N[C@H]1CSSC[C@@H](C(=O)O)NC(=O)[C@H](Cc2c[nH]c3ccccc23)NC(=O)[C@@H]2CSSC[C@H](NC1=O)C(=O)NCC(=O)N[C@@H](Cc1ccc(O)cc1)C(=O)N[C@@H](CCCCN)C(=O)N[C@@H](CC(C)C)C(=O)N2,"SLC6A2 (Homo sapiens, UniProt P23975)","noradrenaline transport, inhibitor, fluorescent substrate uptake",HEK293 expressing human NET,"30 min, 37 °C",2530 ± 530 nM
CC[C@H](C)[C@H](NC(=O)[C@H](C)NC(=O)[C@H](CCC(=O)O)NC(=O)[C@H](CCC(=O)O)NC(=O)[C@H](CC(C)C)NC(=O)[C@H](CCCCN)NC(=O)[C@H](CCCCN)NC(=O)[C@H](CCSC)NC(=O)[C@H](CCC(=O)O)NC(=O)[C@H](Cc1ccc(O)cc1)NC(=O)[C@H](CCC(=O)O)NC(=O)[C@H](CC(C)C)NC(=O)[C@H](CC(=O)O)NC(=O)[C@H](CC(C)C)NC(=O)[C@H](Cc1ccccc1)NC(=O)[C@@H](NC(=O)[C@@H](NC(=O)[C@H](CC(N)=O)NC(=O)[C@@H](NC(=O)[C@H](CCC(N)=O)NC(=O)[C@H](CC(=O)O)NC(=O)[C@H](CC(C)C)NC(=O)[C@@H](N)CO)[C@@H](C)CC)C(C)C)[C@@H](C)O)C(=O)N[C@@H](CCCCN)C(=O)N[C@@H](CCCCN)C(=O)N[C@@H](CC(C)C)C(=O)N[C@@H](CCC(=O)O)C(=O)N[C@@H](CCC(=O)O)C(=O)N[C@@H](CO)C(=O)N[C@@H](Cc1ccc(O)cc1)C(=O)N[C@H](C(=O)N[C@@H](CC(=O)O)C(=O)N[C@@H](CC(C)C)C(=O)N[C@@H](CCCCN)C(=O)N[C@@H](CCC(=O)O)C(=O)N[C@@H](CC(C)C)C(=O)O)[C@@H](C)CC,Spike glycoprotein Beta variant,"cell-cell fusion, inhibitor, luciferase fusion","293T donor, Huh-7 target","16 h, 37 °C",146 nM
N#Cc1ccccc1C[C@@H](N)C(=O)N[C@H](Cc1ccc(Cl)cc1Cl)C(=O)N[C@H](CC(=O)NCCc1c[nH]cn1)Cc1ccc(F)cc1,"Replicase polyprotein 1ab, main protease (rep, Severe acute respiratory syndrome coronavirus 2, UniProt P0DTD1)","enzyme activity, inhibitor",,,300 nM
CC(C)C[C@@H]1NC(=O)[C@H](CCCNC(=N)N)NC(=O)[C@H](CCCNC(=N)N)NC(=O)[C@@H]2CSSC[C@@H]3NC(=O)[C@H](CO)NC(=O)CNC(=O)[C@H]([C@@H](C)O)NC(=O)[C@H](CSSC[C@H](N)C(=O)N[C@@H](CCCCN)C(=O)N[C@@H](CCCNC(=N)N)C(=O)N[C@@H](CCCCN)C(=O)NCC(=O)N[C@@H](CO)C(=O)N[C@@H](CO)C(=O)N2)NC(=O)[C@H](CSSC[C@@H](C(N)=O)NC(=O)[C@H](CCCCN)NC(=O)CNC(=O)[C@H](CC(N)=O)NC(=O)[C@H](CCCNC(=N)N)NC3=O)NC(=O)[C@H](CC(=O)O)NC(=O)[C@H](Cc2ccc(O)cc2)NC(=O)[C@H](CO)NC1=O,"Voltage-dependent N-type calcium channel subunit alpha-1B, with α2δ, β3 subunits (Cacna1b, Rattus norvegicus, UniProt Q02294)","Ba2+ current, inhibitor, whole-cell patch clamp",HEK293 expressing α2δ and β3,"22 °C, together with: Ba2+ 20 mM",68 nM
CC[C@H](C)[C@H](NC(=O)[C@H](C)NC(=O)[C@H](CCC(=O)O)NC(=O)[C@H](CCC(=O)O)NC(=O)[C@H](CC(C)C)NC(=O)[C@H](CCCCN)NC(=O)[C@H](CCCCN)NC(=O)[C@H](CCSC)NC(=O)[C@H](CCC(=O)O)NC(=O)[C@H](Cc1ccc(O)cc1)NC(=O)[C@H](CCC(=O)O)NC(=O)[C@H](CC(C)C)NC(=O)[C@H](CC(=O)O)NC(=O)[C@H](CC(C)C)NC(=O)[C@H](Cc1ccccc1)NC(=O)[C@H](Cc1ccc(O)cc1)NC(=O)[C@@H](NC(=O)[C@H](CC(N)=O)NC(=O)[C@@H](NC(=O)[C@H](CCC(N)=O)NC(=O)[C@H](CC(=O)O)NC(=O)[C@H](CC(C)C)NC(=O)[C@@H](N)CO)[C@@H](C)CC)C(C)C)C(=O)N[C@@H](CCCCN)C(=O)N[C@@H](CCCCN)C(=O)N[C@@H](CC(C)C)C(=O)N[C@@H](CCC(=O)O)C(=O)N[C@@H](CCC(=O)O)C(=O)N[C@@H](CO)C(=O)N[C@@H](Cc1ccc(O)cc1)C(=O)N[C@H](C(=O)N[C@@H](CC(=O)O)C(=O)N[C@@H](CC(C)C)C(=O)N[C@@H](CCCCN)C(=O)N[C@@H](CCC(=O)O)C(=O)N[C@@H](CC(C)C)C(=O)O)[C@@H](C)CC,"Spike glycoprotein (MERS-CoV, UniProt K9N5Q8)","cell-cell fusion, inhibitor, luciferase fusion","293T donor, Huh-7 target","16 h, 37 °C",894 nM
c1cc2c(nc1N1CCOCC1)sc1c(N3CCNCC3)nnnc12,bglR,"enzyme activity, inhibitor",,,20 ± 10 nM

# Excerpt of the above:
Compound,target,test,system,setting,IC50
N#Cc1ccccc1C[C@@H](N)C(=O)N[C@H](Cc1ccc(Cl)cc1Cl)C(=O)N[C@H](CC(=O)NCCc1c[nH]cn1)Cc1ccc(F)cc1,"Replicase polyprotein 1ab, main protease (rep, Severe acute respiratory syndrome coronavirus 2, UniProt P0DTD1)","enzyme activity, inhibitor",,,300 nM
